# Values quoted from earlier work, collected from citations in different studies.
# Chains of the proteins cited; added tags and fusions are not shown.
# UniProt P33261, whole entry: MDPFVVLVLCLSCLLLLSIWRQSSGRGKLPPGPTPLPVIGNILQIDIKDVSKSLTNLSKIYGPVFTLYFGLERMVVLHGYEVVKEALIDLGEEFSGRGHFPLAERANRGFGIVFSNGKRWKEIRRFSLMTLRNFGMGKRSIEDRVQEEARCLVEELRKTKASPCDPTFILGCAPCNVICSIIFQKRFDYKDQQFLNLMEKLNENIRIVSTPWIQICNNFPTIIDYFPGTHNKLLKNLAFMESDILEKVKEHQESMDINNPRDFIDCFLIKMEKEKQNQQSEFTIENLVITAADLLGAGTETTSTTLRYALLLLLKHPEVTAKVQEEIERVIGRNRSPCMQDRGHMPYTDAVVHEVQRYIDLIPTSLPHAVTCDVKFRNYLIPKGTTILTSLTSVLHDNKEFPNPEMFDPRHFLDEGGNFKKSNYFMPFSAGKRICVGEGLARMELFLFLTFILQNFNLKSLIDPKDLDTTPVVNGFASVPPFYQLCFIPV
# UniProt Q9UUB1, whole entry: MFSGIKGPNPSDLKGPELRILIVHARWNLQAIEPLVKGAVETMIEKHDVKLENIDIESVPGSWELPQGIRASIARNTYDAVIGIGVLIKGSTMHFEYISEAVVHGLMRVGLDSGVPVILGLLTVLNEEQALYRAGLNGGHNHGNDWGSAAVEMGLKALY
# Lines come from different studies, so protocols differ. Numbers after ± are the reported error.
Structure (SMILES),tested on,test,test system,conditions,how to read,quantity,result
Ic1ccc(CSCn2ccnc2)cc1,"CYP2C19 (Homo sapiens, UniProt P33261)",,,,,Ki,0.0191 µM
CN(C(=O)Cc1ccc(Cl)c(Cl)c1)[C@@H]1CCCC[C@H]1N1CCCC1,,,mouse,,,brain to blood ratio,8.2
Cc1cc(C)c2c(N)c(C(=O)NCc3ccc4c(c3)OCO4)sc2n1,,,rat liver microsomes,90 min,,remaining parent compound,< 10%
COc1cccc2c(N3CCC(CCP(=O)(O)O)CC3)ncnc12,,,"mouse, serum","subcutaneous, 300 mg/kg single dose, 24 h",,serum concentration,~100 nM
NC1=NC2(CCCCC2)N(c2ccc(OCc3cn(CCCCOc4ccc5ccc(=O)oc5c4)nn3)cc2)C(N)=N1,HepG2,,,,relative to: CC50 HepG2 over MIC50,selectivity index,> 4000
c1ccc2c[n+](CCCCCCCC[n+]3ccc4ccccc4c3)ccc2c1,,,rat,"intramuscular, 24 h",,LD50,56.2 mg/kg
NCCNCCSc1ccccc1,,,urine,"1 µg/mL, 24 h, room temperature",,short-term stability,93.8 ± 2.66 % remaining
C=CC[N+](C)(C)c1ccc(CCC(=O)CCc2ccc([N+](C)(C)CC=C)cc2)cc1,BJ fibroblasts,"cytotoxicity, MTT",,,,IC50,> 3000 µM
CNCC(=O)N[C@@H](Cc1c[nH]c2ccccc12)C(=O)N[C@H](C(=O)N[C@@H](CC(C)C)C(=O)N[C@@H](CC(N)=O)C(=O)N[C@@H](CO)C(=O)N[C@@H](C)C(=O)NCC(=O)N[C@@H](Cc1ccc(O)cc1)C(=O)N[C@@H](CC(C)C)C(=O)N[C@@H](CC(C)C)C(=O)NCC(=O)N1CCC[C@H]1C(=O)N[C@@H](CCCCN)C(=O)N[C@@H](CCCCN)C(=O)N[C@@H](CCCCN)C(=O)N[C@@H](CCCCN)C(N)=O)[C@@H](C)O,,diphenyl column HPLC,,water/acetonitrile gradient with TFA,,HPLC retention time,15.1 ± 0.42 min
CCC(=O)Nc1c(NC[C@H](O)[C@H](O)[C@H](O)CO)[nH]c(=O)[nH]c1=O,"6,7-dimethyl-8-ribityllumazine synthase (rib4, Schizosaccharomyces pombe, UniProt Q9UUB1)",inhibitor,,pH 7.0,,Ki,11 ± 1 µM
O=c1c2ccc(Oc3ccc(OC(F)(F)F)cc3)cc2[nH]c2cc(Cl)cc(F)c12,,,plasma,"oral, 80 mg/kg, single dose",,Cmax,17.2 ng/mL
c1ccc2c(c1)ccc[n+]2CCCCCCCCCC[n+]1cccc2ccccc21,,,"rat, plasma","intramuscular, 5% of LD50",,half-life,54.7 ± 6.2 min
CC[C@H](C)[C@H](NC(=O)[C@H](CCCNC(=N)N)NC(=O)[C@H](CC(C)C)NC(=O)[C@@H](N)Cc1ccccc1)C(=O)N[C@@H](CCCNC(=N)N)C(=O)N1CCC[C@H]1C(=O)N[C@@H](CCCCN)C(=O)O,,,rat plasma,,,half-life,< 60 min

# Some of these lines once more:
Structure (SMILES),tested on,test,test system,conditions,how to read,quantity,result
CCC(=O)Nc1c(NC[C@H](O)[C@H](O)[C@H](O)CO)[nH]c(=O)[nH]c1=O,"6,7-dimethyl-8-ribityllumazine synthase (rib4, Schizosaccharomyces pombe, UniProt Q9UUB1)",inhibitor,,pH 7.0,,Ki,11 ± 1 µM
c1ccc2c(c1)ccc[n+]2CCCCCCCCCC[n+]1cccc2ccccc21,,,"rat, plasma","intramuscular, 5% of LD50",,half-life,54.7 ± 6.2 min
